Experimental data of several laboratories.
Each line is one published result; not all experiments were run side by side. Numbers after ± are the reported error.
CDK5 with p25: Cyclin-dependent kinase 5, with p25 (CDK5, Homo sapiens, UniProt Q00535)
Sequence of UniProt Q00535 (whole entry, looked up): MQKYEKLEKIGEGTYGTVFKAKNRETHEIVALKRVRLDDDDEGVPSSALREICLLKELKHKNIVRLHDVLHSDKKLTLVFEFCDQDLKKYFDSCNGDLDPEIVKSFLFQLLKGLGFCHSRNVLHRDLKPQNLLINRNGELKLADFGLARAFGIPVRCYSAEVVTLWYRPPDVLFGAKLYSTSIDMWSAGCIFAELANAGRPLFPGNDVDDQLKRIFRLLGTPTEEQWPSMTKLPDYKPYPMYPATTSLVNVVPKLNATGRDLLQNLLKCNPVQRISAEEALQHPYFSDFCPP
Sequence of UniProt P07711 (whole entry, looked up): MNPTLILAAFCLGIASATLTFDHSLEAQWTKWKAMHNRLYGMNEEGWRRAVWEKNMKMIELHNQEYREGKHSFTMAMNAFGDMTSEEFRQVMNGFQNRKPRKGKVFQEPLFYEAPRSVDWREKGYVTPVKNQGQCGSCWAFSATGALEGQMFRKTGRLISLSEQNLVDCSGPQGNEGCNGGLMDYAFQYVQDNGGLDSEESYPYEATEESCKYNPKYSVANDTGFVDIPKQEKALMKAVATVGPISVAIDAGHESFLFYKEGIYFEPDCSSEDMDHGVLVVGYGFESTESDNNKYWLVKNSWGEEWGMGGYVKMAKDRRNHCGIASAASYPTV
Sequence of UniProt Q00534 (whole entry, looked up): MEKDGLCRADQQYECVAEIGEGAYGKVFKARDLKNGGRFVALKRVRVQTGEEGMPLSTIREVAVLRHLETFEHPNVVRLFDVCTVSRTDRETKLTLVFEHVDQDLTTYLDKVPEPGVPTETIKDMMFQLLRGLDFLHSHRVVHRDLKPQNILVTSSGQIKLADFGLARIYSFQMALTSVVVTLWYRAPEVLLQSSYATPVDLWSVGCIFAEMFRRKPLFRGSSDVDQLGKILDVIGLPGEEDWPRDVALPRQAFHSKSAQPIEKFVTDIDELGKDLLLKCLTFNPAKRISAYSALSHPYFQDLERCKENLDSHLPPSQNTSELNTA
Sequence of UniProt Q99759 (whole entry, looked up): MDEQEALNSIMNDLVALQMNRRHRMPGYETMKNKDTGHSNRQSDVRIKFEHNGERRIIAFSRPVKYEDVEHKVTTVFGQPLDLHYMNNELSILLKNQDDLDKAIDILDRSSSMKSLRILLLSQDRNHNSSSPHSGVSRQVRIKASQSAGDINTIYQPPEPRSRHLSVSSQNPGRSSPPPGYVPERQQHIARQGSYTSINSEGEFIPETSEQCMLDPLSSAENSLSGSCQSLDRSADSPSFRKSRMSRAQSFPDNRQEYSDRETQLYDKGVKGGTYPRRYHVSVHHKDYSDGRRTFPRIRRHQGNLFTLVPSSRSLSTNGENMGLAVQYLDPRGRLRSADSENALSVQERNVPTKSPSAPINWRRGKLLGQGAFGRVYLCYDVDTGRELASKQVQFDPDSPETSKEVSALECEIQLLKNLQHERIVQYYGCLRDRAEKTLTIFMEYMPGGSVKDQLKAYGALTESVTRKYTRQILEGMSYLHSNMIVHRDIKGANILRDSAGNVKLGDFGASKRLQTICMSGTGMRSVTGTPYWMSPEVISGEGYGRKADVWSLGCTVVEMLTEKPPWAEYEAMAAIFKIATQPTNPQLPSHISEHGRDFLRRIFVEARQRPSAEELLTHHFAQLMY
Sequence of UniProt Q9H4Z3 (whole entry, looked up): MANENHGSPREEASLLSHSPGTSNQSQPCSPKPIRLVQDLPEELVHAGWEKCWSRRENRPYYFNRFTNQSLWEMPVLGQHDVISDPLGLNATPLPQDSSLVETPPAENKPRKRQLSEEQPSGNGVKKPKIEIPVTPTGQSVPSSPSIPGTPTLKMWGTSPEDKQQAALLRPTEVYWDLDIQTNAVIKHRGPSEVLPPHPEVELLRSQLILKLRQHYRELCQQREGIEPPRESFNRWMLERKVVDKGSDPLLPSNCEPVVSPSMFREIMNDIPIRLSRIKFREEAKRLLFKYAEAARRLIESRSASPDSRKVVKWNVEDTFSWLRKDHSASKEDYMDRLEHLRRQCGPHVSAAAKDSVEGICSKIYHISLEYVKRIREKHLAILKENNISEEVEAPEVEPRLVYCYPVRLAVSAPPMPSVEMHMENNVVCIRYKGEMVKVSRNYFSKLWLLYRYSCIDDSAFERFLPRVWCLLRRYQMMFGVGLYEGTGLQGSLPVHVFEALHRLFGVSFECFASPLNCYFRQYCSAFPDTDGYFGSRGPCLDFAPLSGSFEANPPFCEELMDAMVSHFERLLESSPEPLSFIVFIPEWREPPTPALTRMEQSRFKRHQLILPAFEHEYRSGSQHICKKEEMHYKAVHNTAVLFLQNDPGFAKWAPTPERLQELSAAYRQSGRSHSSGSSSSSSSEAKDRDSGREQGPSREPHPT
Sequence of UniProt P22607 (whole entry, looked up): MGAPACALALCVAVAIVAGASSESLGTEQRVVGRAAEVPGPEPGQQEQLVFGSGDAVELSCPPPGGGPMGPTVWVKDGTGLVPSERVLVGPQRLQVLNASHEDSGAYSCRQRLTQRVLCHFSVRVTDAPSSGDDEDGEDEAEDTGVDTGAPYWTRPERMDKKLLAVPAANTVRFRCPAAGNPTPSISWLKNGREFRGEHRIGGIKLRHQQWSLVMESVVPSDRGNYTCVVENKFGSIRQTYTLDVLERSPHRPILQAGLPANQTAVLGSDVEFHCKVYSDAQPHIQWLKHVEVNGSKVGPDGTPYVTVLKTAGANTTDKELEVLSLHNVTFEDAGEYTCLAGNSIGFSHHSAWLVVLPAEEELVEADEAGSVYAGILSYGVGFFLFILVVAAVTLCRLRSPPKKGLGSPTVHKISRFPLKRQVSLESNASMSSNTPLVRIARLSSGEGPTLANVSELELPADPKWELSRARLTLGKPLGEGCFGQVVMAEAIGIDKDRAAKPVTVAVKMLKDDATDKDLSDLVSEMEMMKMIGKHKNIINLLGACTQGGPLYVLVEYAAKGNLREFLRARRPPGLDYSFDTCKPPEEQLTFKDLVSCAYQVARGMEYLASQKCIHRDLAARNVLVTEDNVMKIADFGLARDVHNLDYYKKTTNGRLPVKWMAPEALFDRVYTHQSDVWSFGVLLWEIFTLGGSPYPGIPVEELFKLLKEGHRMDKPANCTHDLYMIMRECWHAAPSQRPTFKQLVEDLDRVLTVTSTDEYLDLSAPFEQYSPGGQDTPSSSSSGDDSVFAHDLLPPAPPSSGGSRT
Sequence of UniProt Q15569 (whole entry, looked up): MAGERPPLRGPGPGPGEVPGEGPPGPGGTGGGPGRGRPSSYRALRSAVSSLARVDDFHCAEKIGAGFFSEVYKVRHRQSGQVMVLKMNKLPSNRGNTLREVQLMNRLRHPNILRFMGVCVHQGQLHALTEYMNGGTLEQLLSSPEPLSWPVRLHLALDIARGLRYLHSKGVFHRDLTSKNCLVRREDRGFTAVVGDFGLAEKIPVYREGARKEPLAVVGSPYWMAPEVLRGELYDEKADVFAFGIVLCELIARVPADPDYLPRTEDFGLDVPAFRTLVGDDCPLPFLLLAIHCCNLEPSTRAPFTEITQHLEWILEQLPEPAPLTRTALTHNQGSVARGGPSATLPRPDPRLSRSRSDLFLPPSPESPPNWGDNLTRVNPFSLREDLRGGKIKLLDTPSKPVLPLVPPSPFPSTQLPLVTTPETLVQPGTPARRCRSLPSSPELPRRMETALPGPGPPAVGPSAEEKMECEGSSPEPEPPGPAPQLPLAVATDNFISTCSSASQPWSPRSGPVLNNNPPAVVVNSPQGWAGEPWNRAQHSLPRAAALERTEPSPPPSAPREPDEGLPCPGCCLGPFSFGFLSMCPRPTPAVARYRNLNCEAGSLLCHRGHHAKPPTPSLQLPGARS
Sequence of UniProt P49674 (whole entry, looked up): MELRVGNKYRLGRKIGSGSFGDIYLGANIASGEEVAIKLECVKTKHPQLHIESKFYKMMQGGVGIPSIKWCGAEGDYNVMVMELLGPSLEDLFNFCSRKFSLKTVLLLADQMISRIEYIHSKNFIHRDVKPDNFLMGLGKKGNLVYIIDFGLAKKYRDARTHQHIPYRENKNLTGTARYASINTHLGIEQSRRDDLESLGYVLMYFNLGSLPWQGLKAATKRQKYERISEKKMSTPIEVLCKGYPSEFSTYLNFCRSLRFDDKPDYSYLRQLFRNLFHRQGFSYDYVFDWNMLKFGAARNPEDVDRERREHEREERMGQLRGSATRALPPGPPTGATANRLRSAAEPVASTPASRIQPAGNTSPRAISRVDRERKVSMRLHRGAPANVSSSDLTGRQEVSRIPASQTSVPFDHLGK
Sequence of UniProt Q99572 (whole entry, unmodified, looked up): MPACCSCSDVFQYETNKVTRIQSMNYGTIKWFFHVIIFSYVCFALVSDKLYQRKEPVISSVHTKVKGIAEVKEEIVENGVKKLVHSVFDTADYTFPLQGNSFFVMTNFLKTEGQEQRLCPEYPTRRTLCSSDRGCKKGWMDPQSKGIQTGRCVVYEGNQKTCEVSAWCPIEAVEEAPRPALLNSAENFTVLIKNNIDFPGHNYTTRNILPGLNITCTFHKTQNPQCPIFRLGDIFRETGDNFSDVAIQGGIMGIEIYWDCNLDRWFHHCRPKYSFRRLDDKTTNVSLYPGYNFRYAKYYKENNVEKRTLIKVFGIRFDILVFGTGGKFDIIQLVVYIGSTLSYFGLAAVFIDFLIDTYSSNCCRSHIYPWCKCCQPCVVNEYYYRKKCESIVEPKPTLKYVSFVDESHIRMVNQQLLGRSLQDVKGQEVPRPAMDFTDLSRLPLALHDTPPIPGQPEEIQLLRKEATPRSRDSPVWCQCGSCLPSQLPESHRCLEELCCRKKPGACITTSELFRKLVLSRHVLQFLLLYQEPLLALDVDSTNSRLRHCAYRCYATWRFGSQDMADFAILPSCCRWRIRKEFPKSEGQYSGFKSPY

| Compound | target | test | test system | conditions | how to read | remaining activity |
| --- | --- | --- | --- | --- | --- | --- |
| O=C(NC1CCC1)c1ccc2nc(-c3cccc(NS(=O)(=O)NCCN4CCCCC4)c3)cn2c1 | SNRK (Homo sapiens, UniProt Q9NRH2) | enzyme activity |  | 10 µM |  | 96% |
| COc1cc(N2CCN(C)CC2)ccc1Nc1nc(N)n(C(=O)NCc2c(Cl)cccc2Cl)n1 | SBK1 (Homo sapiens, UniProt Q52WX2) | enzyme activity |  | 10 µM | relative to: control | 4.6% |
| CC(C)=CCC(O)C1=CC(=O)c2c(O)ccc(O)c2C1=O (centres unmarked) | Procathepsin L (CTSL, Homo sapiens, UniProt P07711) | enzyme activity, inhibitor |  | 100 µM, added: Z-FR-AFC |  | 115% |
| C=CC(=O)N1CCC[C@@H](n2nc(-c3ccc(Oc4ccccc4)cc3)c3c(N)ncnc32)C1 | NTRK3 (Homo sapiens, UniProt Q16288) |  |  | 0.1 µM |  | 140% |
| C=CC(=O)N1CCC([C@@H]2CCNc3c(C(N)=O)c(-c4ccc(Oc5ccccc5)cc4)nn32)CC1 | FGFR3 (Homo sapiens, UniProt P22607) | kinase activity, inhibitor, HotSpot radiometric |  | 100 nM, added: ATP 10 µM |  | 101.2 ± 0.2% |
| COc1cc(-c2cncc3c2CN(C)Cc2cc(N4CCNCC4)ccc2-3)cc(OC)c1OC | CSNK1E (Homo sapiens, UniProt P49674) | kinase activity |  | 1 µM, human enzyme, added: ATP 10 µM | relative to: DMSO control | 119% |
| CC(C)(C)c1nc2c(s1)c1nc(N)ncc1c1ccc(NS(=O)(=O)c3c(F)cccc3F)c(F)c12 | CDK5 with p25 | kinase activity, radiometric 33PanQinase |  | 1 µM | relative to: DMSO | 101% |
| Cc1cc(NC(=O)c2cccc(NC(=O)/C=C/CN(C)C)c2)ccc1Nc1nccc(-c2cccnc2)n1 | MAPK8 (Homo sapiens, UniProt P45983) | enzyme activity, inhibitor |  | 2.79e-05 µM, 18 h, unit not given, added: GSH 10 mM pre-incubation | relative to: vehicle | 1.03 |
| COc1ccc(F)cc1C(=O)NCc1ccc(-c2nn([C@@H](C)C(F)(F)F)c(N)c2C(N)=O)cc1 | CDK5 with p25 | kinase activity, inhibitor, HotSpot radiometric |  | 100 nM, added: ATP 10 µM |  | 69.4 ± 1.9% |
| COc1cc(Nc2ncc3c(n2)-c2ccc(Cl)cc2C(c2c(F)cccc2OC)=NC3)ccc1C(=O)O | FGFR2 | kinase activity |  | 1 µM |  | 10% |
| COc1ccc(Cl)cc1-c1cc(=O)[nH]c(=S)n1CC(N)=O | Myeloperoxidase (MPO, Homo sapiens, UniProt P05164) |  |  | 10 µM, 0.1 h |  | 2.16% |
| C=CC(=O)N1CCC[C@@H](n2nc(-c3ccc(Oc4ccccc4)cc3)c3c(N)ncnc32)C1 | RPS6KA4 (Homo sapiens, UniProt O75676) | kinase activity, inhibitor, HotSpot radiometric |  | 100 nM, added: ATP 10 µM |  | 78.4 ± 1.4% |
| Nc1ncnc2c1ncn2C1OC(CSCCNCc2cccc(-c3ccccc3)c2)C(O)C1O (centres unmarked) | mRNA (2'-O-methyladenosine-N(6)-)-methyltransferase (PCIF1, Homo sapiens, UniProt Q9H4Z3) |  |  | 10 µM |  | 95.5% |
| O=C(O)c1ccc(Nc2ncc3c(n2)-c2ccc(Cl)cc2C(c2c(F)cccc2F)=NC3)cc1 | SAPK4(h) | kinase activity |  | 1 µM |  | 87% |
| C=CC[C@@H]1c2ccc(OC)c(OC)c2CN2CCc3cc4c(cc3[C@H]12)OCO4 | P2X purinoceptor 7 (P2RX7, Homo sapiens, UniProt Q99572) | ATP-evoked current, inhibitor, whole-cell patch clamp | HEK293 transfected | 0.01 µM |  | 99.9% |
| CNc1ncc2c(/C=C/C(=O)N3CCC(OC)CC3)nn(Cc3cccc(C(F)(F)F)c3)c2n1 | CDK5 with p25 | inhibitor |  | 1 µM | relative to: control | 116% |
| CC#CC(=O)N1CCC[C@H]1c1nc(-c2ccc(C(=O)Nc3ccccn3)cc2)c2c(N)nccn12 | MAP3K3 (Homo sapiens, UniProt Q99759) | kinase activity, inhibitor, HotSpot radiometric |  | 100 nM, added: ATP 10 µM |  | 91.5 ± 5.9% |
| Cc1cc(Nc2cc(N3CCN(C)CC3)nc(Sc3ccc(NC(=O)C4CC4)cc3)n2)[nH]n1 | Cyclin-dependent kinase 6, with cyclin D3 (CDK6, Homo sapiens, UniProt Q00534) | kinase activity, KinaseProfiler |  | 0.03 µM, species human | relative to: control | 99% |
| COc1cc(N2CCN(C)CC2)ccc1Nc1nc(N)n(C(=S)NCc2c(Cl)cccc2Cl)n1 | TESK1 (Homo sapiens, UniProt Q15569) | enzyme activity |  | 10 µM | relative to: control | 11% |
| COc1cc(F)ccc1-c1ncnc(Nc2cccc(C[S@](C)(=N)=O)c2)n1 | HIPK3 (Homo sapiens, UniProt Q9H422) | kinase activity |  | 10 µM, added: 10 µM ATP |  | 92% |
